Assay results gathered from unrelated publications.
Numbered parts are unrelated; each lists some results of a single study.
Chain of UniProt Q6XUX3 (whole entry, looked up): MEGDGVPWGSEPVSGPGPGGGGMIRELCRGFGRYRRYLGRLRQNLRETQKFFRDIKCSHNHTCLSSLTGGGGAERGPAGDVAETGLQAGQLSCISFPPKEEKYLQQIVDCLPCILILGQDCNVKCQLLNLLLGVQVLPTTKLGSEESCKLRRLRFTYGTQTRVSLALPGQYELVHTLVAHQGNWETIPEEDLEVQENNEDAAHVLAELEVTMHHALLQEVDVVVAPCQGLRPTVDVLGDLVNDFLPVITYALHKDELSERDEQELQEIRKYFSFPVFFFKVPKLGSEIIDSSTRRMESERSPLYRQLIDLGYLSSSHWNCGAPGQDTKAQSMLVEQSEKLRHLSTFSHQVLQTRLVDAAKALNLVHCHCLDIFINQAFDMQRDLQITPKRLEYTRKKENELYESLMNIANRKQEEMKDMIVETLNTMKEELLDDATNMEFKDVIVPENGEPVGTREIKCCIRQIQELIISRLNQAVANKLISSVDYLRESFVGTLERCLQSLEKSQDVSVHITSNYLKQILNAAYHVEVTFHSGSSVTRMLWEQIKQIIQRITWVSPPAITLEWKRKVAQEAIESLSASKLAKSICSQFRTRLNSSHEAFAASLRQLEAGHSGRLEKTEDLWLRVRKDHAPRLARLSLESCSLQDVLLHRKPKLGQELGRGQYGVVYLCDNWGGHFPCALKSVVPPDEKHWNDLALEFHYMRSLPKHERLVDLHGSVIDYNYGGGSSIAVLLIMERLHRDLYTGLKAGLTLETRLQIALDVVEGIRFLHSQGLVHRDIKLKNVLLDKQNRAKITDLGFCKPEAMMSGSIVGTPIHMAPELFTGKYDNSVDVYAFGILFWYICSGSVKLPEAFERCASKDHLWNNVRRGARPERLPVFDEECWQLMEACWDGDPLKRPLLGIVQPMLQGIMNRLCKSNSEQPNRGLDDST
Chain of UniProt Q16816 (whole entry, looked up): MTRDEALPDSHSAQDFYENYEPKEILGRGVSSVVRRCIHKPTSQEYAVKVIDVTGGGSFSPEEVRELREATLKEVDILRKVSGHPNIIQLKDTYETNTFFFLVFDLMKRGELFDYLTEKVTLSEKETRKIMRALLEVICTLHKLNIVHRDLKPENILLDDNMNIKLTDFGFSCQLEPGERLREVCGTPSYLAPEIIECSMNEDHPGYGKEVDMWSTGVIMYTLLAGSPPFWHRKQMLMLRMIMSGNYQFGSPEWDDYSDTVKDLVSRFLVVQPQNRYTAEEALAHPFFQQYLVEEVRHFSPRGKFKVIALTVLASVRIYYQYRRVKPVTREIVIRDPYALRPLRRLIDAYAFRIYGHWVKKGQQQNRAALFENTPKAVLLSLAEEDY
Chain of UniProt Q9P289 (whole entry, looked up): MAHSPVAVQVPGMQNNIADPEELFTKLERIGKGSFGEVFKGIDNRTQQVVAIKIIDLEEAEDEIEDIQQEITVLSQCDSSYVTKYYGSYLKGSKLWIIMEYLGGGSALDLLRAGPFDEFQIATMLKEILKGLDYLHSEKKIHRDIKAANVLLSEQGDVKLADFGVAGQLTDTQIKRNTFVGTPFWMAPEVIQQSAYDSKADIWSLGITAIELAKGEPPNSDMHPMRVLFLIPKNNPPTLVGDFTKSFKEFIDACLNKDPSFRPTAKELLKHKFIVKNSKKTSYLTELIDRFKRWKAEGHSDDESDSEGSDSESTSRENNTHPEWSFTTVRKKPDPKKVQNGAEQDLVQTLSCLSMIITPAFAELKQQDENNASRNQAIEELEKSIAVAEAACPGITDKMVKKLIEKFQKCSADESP
Chain of UniProt P06241 (whole entry, looked up): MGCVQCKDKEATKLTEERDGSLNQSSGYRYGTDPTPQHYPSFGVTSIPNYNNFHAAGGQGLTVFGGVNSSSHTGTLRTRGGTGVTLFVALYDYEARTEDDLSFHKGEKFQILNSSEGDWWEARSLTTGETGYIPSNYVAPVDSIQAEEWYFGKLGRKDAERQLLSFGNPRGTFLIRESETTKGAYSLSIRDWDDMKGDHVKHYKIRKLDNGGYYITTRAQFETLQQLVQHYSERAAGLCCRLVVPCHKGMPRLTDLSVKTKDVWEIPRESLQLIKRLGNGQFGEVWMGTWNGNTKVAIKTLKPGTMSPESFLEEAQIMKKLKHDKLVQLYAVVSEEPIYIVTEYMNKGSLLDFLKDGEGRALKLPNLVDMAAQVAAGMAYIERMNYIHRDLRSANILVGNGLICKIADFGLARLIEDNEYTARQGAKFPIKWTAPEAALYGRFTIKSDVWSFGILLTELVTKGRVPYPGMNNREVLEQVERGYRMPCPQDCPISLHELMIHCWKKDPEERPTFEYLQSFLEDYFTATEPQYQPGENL

Block 1
Target: Serine/threonine-protein kinase BRSK1 (BRSK1, Homo sapiens, UniProt Q8TDC3)
Chain of UniProt Q8TDC3 (whole entry, looked up): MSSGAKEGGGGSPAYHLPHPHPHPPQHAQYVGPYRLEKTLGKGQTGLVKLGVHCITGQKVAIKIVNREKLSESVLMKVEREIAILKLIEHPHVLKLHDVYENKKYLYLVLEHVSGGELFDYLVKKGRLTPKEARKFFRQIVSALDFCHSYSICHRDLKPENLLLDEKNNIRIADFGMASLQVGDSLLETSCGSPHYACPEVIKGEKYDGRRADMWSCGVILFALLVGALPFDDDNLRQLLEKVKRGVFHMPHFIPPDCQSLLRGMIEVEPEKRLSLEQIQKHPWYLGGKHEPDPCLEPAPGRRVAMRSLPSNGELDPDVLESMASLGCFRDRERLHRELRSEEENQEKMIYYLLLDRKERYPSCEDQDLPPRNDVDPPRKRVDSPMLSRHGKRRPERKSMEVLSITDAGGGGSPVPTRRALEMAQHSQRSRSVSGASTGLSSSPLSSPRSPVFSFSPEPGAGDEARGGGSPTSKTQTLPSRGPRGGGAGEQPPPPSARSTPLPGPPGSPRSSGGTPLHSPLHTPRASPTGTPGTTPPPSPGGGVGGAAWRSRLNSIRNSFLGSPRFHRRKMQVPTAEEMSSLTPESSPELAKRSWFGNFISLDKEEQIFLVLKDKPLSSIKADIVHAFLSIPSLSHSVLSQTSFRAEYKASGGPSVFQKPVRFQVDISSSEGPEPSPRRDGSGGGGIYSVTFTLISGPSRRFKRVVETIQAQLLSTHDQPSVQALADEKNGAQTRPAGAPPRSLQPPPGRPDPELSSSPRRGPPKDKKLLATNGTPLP
Read-out: enzyme activity
Action: inhibitor
Concentration: 0.5 µM
Reference: control
| SMILES | remaining activity [%] |
| --- | --- |
| O=C(CCCc1ccc(-c2ccccc2F)cc1)Nc1ccc(O)cc1 | 103 |
| COc1ccc(OC)c2c(=S)c3ccccc3[nH]c12 | 93.7 |
| COc1cc2ncnc(Nc3ccc(Oc4ccccc4)cc3)c2cc1OC | 98.7 |
| NCCNc1ncc(C(N)=O)c(Nc2cccc(C(F)(F)F)c2)n1 | 101 |
| O=S(=O)(c1cccc2cnccc12)N1CCCNCC1 | 97.5 |
| O=C(O)c1ccc2c3c1cccc3c(=O)n1c3ccccc3nc21 | 89 |
| COc1ccc(C(=O)Nc2sc3c(c2C(N)=O)CCCC3)cc1OC | 105 |
| Nc1[nH]nc2nc3ccccc3nc12 | 91.5 |
| O=c1c2ccccc2[nH]c(=S)n1CCN1CCC(=C(c2ccc(F)cc2)c2ccc(F)cc2)CC1 | 98.3 |
| Oc1ccc(-c2nc(-c3ccncc3)c(-c3ccc(F)cc3)[nH]2)cc1 | 101 |
| O=C1NC(=O)C(c2cn(CCCO)c3ncccc23)=C1c1cnccn1 | 89.2 |
| Cn1sc(=O)n(Cc2ccccc2)c1=O | 102 |
| Nc1ncnc2n[nH]c(Nc3ccc(F)cc3)c12 | 63 |
| Cc1ccc(NC(=O)c2ccc(CN3CCN(C)CC3)cc2)cc1Nc1nc(-c2cccnc2)cs1 | 102 |

Block 2
Target: Centromere-binding protein 1, full length, His-tagged (CBF1, Saccharomyces cerevisiae, UniProt P17106, residues 1-351)
Chain of UniProt P17106 (whole entry, looked up): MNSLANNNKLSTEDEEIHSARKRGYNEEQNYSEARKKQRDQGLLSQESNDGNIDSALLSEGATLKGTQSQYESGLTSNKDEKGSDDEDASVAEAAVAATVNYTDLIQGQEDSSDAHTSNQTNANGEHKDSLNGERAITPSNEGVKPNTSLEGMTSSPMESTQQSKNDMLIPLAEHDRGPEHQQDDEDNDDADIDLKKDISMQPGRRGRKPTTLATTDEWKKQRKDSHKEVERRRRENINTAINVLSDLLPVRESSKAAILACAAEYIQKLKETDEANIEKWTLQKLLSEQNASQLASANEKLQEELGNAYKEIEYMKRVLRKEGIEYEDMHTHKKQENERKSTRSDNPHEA
Method: competition protein-binding microarray
Molecule type: double-stranded DNA, one strand shown
Matrix: in vitro
Concentration: 2 µM
Notes: whole 60-bp probe, lowest competitor level
Added: Pho4 competitor, 0.05 µM
Direction: higher = stronger binding
All sequences stand within: … GTCTTGATTCGCTTGACGCTGCTG
| Strand | fluorescence intensity [a.u.] |
| --- | --- |
| CTAACGAAGGTTTTTCACGTGCAGTACAAGCCAAGT | 968 |
| TAAACCAAGTAAATGACGATGGGAGAAGCAGTACCC | 60.8 |
| CTGGAAGAGACCCACCATGTGGGATAGATCCCTGTA | 52.2 |
| TGGATCTTCCACTGTCATGCTAATTGGTCTTAGGTT | 61.9 |
| AATTCCTTATGCGGGCCCGGTCAGAACGGATTATAG | 59.9 |
| CGGGGTTAAGTTTGGACAGTGGGTGGCTTGCAGCAG | 71.3 |
| CAGTGGGAATCTGTTCATGTGGCTGTATCACAACCA | 86 |
| AAGACAAATGGTCGGCCCGTGACGGTTGCAGGCCCA | 97.8 |

Block 3
Compound: Cc1cc(C)c(-n2ccn3nc(-c4cccnc4)cc23)cc1NC(=O)c1cc(C#N)cc(S(F)(F)(F)(F)F)c1
Read-out: cell-free assay
Method: competition with immobilised ligand
Concentration: 0.1 µM
| target | remaining binding |
| --- | --- |
| Tyrosine-protein kinase Fyn (FYN, Homo sapiens, UniProt P06241) | 97.5% |
| Phosphorylase b kinase gamma catalytic chain, skeletal muscle/heart isoform (PHKG1, Homo sapiens, UniProt Q16816) | 80.1% |
| Serine/threonine-protein kinase 26 (STK26, Homo sapiens, UniProt Q9P289) | 81.8% |
| Tyrosine-protein kinase SYK (SYK, Homo sapiens, UniProt P43405) | 100% |
| Dual serine/threonine and tyrosine protein kinase (DSTYK, Homo sapiens, UniProt Q6XUX3) | 71.1% |

Single results of other studies
| SMILES | test system | conditions | endpoint | value |
| --- | --- | --- | --- | --- |
| CC(C)n1cnc(-c2ccc(F)cc2)c1-c1ncc(C(=O)Nc2ccc(N3CCN(C)CC3)cc2)[nH]1 | IPF patients | 60 mg once daily, adverse event | abdominal discomfort incidence | 0% |
